Measured values pooled from the literature.
Values joined by “and” are separate records of one study, mostly repeats; a detail may differ. Numbers after ± are the reported error.
KLRK1 with ULBP6: NKG2-D type II integral membrane protein, with ULBP6 (KLRK1, Homo sapiens, UniProt P26718)
Sequence of UniProt P26718 (whole entry, looked up): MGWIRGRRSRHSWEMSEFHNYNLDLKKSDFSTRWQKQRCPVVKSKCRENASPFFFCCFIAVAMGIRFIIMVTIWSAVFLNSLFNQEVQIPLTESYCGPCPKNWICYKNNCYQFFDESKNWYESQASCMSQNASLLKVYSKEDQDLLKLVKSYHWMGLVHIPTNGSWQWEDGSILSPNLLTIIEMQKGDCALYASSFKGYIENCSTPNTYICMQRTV
METTL3 with METTL14: N6-adenosine-methyltransferase catalytic subunit, with METTL14 (METTL3, Homo sapiens, UniProt Q86U44)
Sequence of UniProt Q86U44 (whole entry, looked up): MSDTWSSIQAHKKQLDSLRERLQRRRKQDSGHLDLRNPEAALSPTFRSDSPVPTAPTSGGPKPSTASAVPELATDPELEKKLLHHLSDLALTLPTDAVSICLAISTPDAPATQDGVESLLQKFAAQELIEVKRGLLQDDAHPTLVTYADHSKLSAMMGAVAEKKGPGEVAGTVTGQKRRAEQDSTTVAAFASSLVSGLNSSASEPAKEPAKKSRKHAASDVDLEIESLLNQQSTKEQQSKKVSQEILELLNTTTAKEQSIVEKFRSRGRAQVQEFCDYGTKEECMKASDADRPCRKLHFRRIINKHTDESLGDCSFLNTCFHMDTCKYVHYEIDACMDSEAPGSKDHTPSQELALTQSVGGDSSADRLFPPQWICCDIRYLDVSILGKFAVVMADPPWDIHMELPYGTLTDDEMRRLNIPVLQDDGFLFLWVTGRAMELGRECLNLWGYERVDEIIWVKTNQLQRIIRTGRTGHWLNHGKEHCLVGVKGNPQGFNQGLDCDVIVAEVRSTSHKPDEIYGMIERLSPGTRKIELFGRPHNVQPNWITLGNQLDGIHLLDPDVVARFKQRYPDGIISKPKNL
Metallo-beta-lactamase type 2: Metallo-beta-lactamase type 2 (Serratia marcescens, UniProt P52699)
Sequence of UniProt P52699 (whole entry, looked up): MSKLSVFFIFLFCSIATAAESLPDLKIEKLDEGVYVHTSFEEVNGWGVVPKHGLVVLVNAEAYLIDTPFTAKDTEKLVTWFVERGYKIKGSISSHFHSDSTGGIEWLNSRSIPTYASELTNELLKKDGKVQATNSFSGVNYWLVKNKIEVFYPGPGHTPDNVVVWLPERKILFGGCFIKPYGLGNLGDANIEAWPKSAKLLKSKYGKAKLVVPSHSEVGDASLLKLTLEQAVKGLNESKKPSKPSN
Sequence of UniProt P27487 (whole entry, looked up): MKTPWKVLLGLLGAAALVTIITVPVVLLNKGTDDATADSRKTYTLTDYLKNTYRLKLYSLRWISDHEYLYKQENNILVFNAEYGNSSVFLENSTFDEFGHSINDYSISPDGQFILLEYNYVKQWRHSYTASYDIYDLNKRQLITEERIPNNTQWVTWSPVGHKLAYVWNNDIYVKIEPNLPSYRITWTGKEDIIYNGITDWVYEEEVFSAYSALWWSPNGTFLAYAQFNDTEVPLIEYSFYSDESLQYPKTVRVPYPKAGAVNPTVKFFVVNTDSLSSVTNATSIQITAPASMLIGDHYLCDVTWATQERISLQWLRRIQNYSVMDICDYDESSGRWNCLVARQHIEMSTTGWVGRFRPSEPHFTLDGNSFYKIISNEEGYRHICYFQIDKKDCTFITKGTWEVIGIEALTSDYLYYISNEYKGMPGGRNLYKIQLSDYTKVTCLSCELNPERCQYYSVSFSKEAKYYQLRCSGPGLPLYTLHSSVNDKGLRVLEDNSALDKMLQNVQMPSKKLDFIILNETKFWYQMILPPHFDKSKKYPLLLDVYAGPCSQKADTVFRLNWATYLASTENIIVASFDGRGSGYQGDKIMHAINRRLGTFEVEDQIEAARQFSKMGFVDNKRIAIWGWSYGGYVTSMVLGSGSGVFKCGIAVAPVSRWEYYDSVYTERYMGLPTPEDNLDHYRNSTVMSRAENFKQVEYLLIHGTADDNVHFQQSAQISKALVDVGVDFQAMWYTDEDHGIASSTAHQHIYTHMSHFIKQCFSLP
Sequence of UniProt P40261 (whole entry, looked up): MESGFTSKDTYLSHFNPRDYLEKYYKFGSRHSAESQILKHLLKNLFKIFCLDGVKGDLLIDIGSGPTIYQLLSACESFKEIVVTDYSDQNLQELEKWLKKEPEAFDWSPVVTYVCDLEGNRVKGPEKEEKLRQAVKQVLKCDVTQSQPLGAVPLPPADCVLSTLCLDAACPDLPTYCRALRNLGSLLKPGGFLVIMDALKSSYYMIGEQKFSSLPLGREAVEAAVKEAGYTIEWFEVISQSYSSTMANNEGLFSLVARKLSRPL
Sequence of UniProt P17086 (whole entry, looked up): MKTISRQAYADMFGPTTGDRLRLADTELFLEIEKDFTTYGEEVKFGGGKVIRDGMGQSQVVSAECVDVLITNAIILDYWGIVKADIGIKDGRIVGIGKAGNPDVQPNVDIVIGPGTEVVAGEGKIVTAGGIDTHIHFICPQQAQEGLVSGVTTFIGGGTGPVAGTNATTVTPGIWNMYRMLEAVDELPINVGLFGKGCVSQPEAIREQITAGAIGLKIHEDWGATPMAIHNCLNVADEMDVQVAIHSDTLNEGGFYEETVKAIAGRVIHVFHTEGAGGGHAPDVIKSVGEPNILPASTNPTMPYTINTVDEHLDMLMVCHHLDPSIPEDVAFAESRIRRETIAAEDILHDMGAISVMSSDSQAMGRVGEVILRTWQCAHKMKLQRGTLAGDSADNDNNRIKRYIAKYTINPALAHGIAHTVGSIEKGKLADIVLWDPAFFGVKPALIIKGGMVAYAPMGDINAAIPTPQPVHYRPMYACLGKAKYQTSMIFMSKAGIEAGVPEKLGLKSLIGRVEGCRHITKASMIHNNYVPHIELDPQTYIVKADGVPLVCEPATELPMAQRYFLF
Sequence of UniProt P33261 (whole entry, looked up): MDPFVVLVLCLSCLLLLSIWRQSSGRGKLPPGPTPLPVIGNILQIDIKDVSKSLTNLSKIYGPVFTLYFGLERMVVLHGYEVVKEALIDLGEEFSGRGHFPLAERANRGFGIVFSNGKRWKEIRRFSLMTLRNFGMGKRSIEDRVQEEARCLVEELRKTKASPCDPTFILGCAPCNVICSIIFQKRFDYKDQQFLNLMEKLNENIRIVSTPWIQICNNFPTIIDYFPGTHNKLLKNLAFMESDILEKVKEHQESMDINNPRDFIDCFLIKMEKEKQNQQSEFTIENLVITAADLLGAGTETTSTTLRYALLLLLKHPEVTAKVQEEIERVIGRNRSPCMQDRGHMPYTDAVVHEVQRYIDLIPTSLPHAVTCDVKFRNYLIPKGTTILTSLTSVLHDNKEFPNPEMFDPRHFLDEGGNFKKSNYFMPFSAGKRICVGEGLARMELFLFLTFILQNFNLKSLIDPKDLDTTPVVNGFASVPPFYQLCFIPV
Sequence of UniProt P30969 (whole entry, looked up): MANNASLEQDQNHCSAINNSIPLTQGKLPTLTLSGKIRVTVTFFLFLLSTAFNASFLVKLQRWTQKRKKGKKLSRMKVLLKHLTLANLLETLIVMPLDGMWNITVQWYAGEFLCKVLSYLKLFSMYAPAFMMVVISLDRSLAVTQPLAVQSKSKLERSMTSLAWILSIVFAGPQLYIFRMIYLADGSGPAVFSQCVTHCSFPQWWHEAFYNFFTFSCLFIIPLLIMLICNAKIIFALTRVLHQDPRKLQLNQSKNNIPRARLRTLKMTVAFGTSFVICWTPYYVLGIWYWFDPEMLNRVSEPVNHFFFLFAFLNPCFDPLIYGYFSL
Sequence of UniProt P04584 (whole entry, looked up): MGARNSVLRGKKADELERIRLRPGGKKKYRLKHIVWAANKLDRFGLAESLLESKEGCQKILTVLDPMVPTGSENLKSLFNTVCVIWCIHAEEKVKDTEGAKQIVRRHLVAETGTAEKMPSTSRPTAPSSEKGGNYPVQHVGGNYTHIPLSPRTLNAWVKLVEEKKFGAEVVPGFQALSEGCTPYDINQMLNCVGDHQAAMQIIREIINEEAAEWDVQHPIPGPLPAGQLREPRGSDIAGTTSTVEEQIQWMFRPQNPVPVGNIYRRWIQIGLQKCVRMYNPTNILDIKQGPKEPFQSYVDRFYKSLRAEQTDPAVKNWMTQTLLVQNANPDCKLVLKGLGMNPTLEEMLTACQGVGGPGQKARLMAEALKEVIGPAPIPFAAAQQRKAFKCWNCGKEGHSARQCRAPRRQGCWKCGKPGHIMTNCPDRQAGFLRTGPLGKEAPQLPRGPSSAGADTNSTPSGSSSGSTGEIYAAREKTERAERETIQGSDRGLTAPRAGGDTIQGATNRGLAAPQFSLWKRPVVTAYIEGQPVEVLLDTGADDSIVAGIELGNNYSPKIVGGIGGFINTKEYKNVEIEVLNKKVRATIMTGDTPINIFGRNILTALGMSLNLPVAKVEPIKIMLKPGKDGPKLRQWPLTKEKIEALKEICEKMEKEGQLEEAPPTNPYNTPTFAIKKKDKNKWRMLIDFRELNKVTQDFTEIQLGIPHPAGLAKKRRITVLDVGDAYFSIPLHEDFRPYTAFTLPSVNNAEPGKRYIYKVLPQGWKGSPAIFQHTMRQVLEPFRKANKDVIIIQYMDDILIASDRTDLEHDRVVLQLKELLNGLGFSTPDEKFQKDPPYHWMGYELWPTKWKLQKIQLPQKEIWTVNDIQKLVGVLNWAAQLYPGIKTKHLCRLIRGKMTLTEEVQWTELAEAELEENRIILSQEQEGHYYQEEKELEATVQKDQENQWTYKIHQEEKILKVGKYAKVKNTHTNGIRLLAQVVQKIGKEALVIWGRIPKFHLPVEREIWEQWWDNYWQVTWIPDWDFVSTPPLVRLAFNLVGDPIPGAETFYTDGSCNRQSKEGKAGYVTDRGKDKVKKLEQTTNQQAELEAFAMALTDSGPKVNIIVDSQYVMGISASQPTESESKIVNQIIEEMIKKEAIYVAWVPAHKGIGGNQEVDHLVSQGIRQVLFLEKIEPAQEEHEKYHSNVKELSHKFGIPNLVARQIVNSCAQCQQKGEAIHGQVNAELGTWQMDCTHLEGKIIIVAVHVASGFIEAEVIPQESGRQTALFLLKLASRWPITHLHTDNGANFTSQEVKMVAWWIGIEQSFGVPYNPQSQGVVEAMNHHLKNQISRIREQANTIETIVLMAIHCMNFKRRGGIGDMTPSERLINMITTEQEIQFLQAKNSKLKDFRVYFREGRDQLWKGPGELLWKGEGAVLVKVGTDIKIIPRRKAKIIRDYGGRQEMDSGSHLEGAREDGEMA

The IC50 of CC(C)C[C@H](NC(=O)[C@H](C)NC(=O)[C@H](Cc1ccc(O)cc1)NC(=O)[C@H](CC(N)=O)NC(=O)[C@H](CCC(=O)O)NC(=O)[C@H](CC(=O)O)NC(=O)[C@H](CC(N)=O)NC(=O)[C@H](C)NC(=O)[C@H](C)N)C(=O)N[C@@H](C)C(=O)N[C@@H](C)C(=O)O is reported as about 0.47 µM (RING finger and CHY zinc finger domain-containing protein 1 (RCHY1, Homo sapiens, UniProt Q96PM5); binding).
For CN(C)CP(C)(=O)O, the IC50 was 154 ± 6 µM (Urease subunit alpha, with UreA, UreB (ureC, Proteus mirabilis, UniProt P17086); whole-cell urease activity, inhibitor; 15 min preincubation, pH 5.5, 37 °C, together with: 5 mM urea).
For CCC(=O)C(NC(=O)c1ccccc1-c1ccc(C(F)(F)F)cc1)c1cccc(C(F)(F)F)c1 (stereo not shown), the IC50 was over 20 µM (KLRK1 with ULBP6; ligand binding, inhibitor, TR-FRET; HEK293 expressing NKG2D and DAP10; together with: ULBP6-AF647).
CC(C)C[C@H](N)C(=O)N1CCC[C@H]1C(=O)N[C@@H](Cc1ccccc1)C(=O)N[C@@H](C)C(=O)O gave an IC50 of < 300 µM and 216 µM (DPP4 (Homo sapiens, UniProt P27487); enzyme activity, inhibitor, absorbance).
COC1CC(=O)N(C)C=CCCCC(=O)N(C)C(C(C)C)C(=O)N(C)C(CC(C)C)C(=O)OC(C(C)C)CC(C)C1 (stereo not shown) has an IC50 of about 98.6 µM (TACR3 (Homo sapiens, UniProt P29371); β-arrestin recruitment, antagonist).
CC(C)NCc1ccc(C[C@@H]2NC(=O)[C@@H](Cc3c[nH]c4ccccc34)NC(=O)[C@H](Cc3ccccc3)NC(=O)[C@H](Cc3ccccc3)NC(=O)[C@H](CCCCN)NC(=O)[C@@H](N)CSSC[C@@H](C(=O)O)NC(=O)[C@H](CO)NC(=O)[C@H]([C@@H](C)O)NC(=O)[C@H](Cc3ccc(O)cc3)NC(=O)[C@H]([C@@H](C)O)NC2=O)cc1 has an IC50 of over 1 µM (SSTR2 (Homo sapiens, UniProt P30874); ligand displacement, radioligand; cell membranes).
For N#Cc1cn([C@@H]2O[C@H](CSCC[C@H](N)C(=O)O)[C@@H](O)[C@H]2O)c2ncnc(N)c12, the IC50 was 0.9 µM (METTL3 with METTL14; enzyme activity, inhibitor, radiometric; METTL3-METTL14 complex).
CC(C)C[C@H](NC(=O)[C@H](CC(N)=O)NC(=O)[C@@H](NC(=O)[C@H](Cc1ccccc1)NC(=O)[C@H](CC(C)C)NC(=O)[C@@H]1CCCN1C(=O)[C@H](C)NC(=O)[C@@H](N)Cc1ccccc1)[C@@H](C)O)C(=O)O gave an IC50 of under 0.0005 µM (H-2 class I histocompatibility antigen, K-B alpha chain, 24 (H2-K1, Mus musculus, UniProt P01901); peptide binding, competitor; 2 d, room temperature, together with: radiolabelled peptide).
The IC50 of Cc1cc(C)c(S(=O)(=O)N2CC2C(N)=O)c(C)c1 (stereo not shown) is reported as over 200 µM (PDIA3 (Homo sapiens, UniProt P30101); enzyme activity, inhibitor, absorbance; pH 7.6).
With O=C(O)c1ccccc1-c1c2ccc(=O)c([As]3SCCS3)c-2oc2c([As]3SCCS3)c(O)ccc12 the IC50 was 0.074 µM (Ptpn11 (Mus musculus, UniProt P35235); enzyme activity, inhibitor, absorbance; pH 7, with preincubation).
CN[C@@H](C)C(=O)N[C@H](C(=O)N1C[C@@H](NC(=O)COCCOCCOCCOCc2cn(CCNC(=O)CN(Cc3cccs3)C(=O)[C@H](NS(=O)(=O)c3cc4ccc(O)nc4cc3Cl)c3ccccc3OC)nn2)C[C@H]1C(=O)N[C@@H]1CCCc2ccccc21)C1CCCCC1 gave an IC50 of 1.92 µM (OGT (Homo sapiens, UniProt O15294); enzyme activity, inhibitor, fluorescence).
For CS(=O)(=O)SCCS(=O)(=O)O, the IC50 was 320 µM (arsenite methyltransferase (Chlamydomonas reinhardtii, UniProt K0BVM7)).
For O=C(CCCc1ccccc1)NC1CCOC1=O (stereo not shown), the IC50 was 1 µM (lasR (Pseudomonas aeruginosa, UniProt P25084); reporter gene, antagonist; Escherichia coli, JLD271 with LasR plasmid; together with: OdDHL 2 nM).
Nc1ncnc2c1ncn2[C@@H]1O[C@H](CSCCNC(=O)NCCc2ccccc2)[C@@H](O)[C@H]1O has an IC50 of over 50 µM (METTL3 with METTL14; enzyme activity, inhibitor, radiometric; METTL3-METTL14 complex).
The IC50 of N[C@@H](Cc1ccc(O)cc1)C(=O)N1Cc2ccccc2C[C@H]1C(=O)N[C@@H](Cc1ccccc1)C(=O)N[C@@H](Cc1ccccc1)C(=O)N[C@@H](CC(=O)O)C(=O)NCCOCCOCCNC(=O)CCCC[C@@H]1SC[C@@H]2NC(=O)N[C@@H]21 is reported as 0.0248 µM (Oprd1 (Mus musculus, UniProt P32300); ligand displacement, radioligand).
For CC[C@H](C)[C@@H]1NC(=O)[C@H](C)NC(=O)[C@H](Cc2ccc(O)cc2)NC(=O)[C@H](CCCCN)NC(=O)[C@H](CCCCN)NC(=O)CNC(=O)[C@H](C)NC(=O)[C@H]([C@@H](C)CC)NC(=O)[C@H]([C@@H](C)CC)NC(=O)[C@H](Cc2ccccc2)NC(=O)[C@H](CC(C)C)NC(=O)[C@H](Cc2ccc(O)cc2)NC(=O)[C@H](CCCNC(=N)N)NC(=O)[C@@H](Cc2ccc(O)cc2)NC(=O)CSC[C@@H](C(=O)NCC(N)=O)NC(=O)[C@H](CCCNC(=N)N)NC(=O)[C@H](C(C)C)NC1=O, the IC50 was 7.06 µM (NNMT (Homo sapiens, UniProt P40261); enzyme activity, inhibitor, mass spectrometry).
For CC1OC(OC2CC(O)C3(CO)C4C(O)CC5(C)C(C6COC(=O)C6)CCC5(O)C4CCC3(O)C2)C(O)C(O)C1O (stereo not shown), the IC50 was 2.6 µM (porcine Na+/K+-ATPase; enzyme activity, colorimetric phosphate release).
With O=C(NC12CC3CC(CC(C3)C1)C2)c1cc2cc(Cl)ccc2[nH]1 the IC50 was 21 µM (CYP2C19 (Homo sapiens, UniProt P33261); inhibitor).
CC(=O)N[C@@H](CCCNC(=N)N)C(=O)N[C@@H](Cc1ccc(O)cc1)C(=O)N[C@@H](CCCNC(=N)NC(=O)NCCCCN)C(=O)N[C@@H](CC(C)C)C(=O)N[C@@H](CCCNC(=N)N)C(=O)N[C@H](Cc1ccc(O)cc1)C(N)=O gave an IC50 of 1.12 ± 0.25 µM (NPY4R (Homo sapiens, UniProt P50391); β-arrestin 2 recruitment, antagonist; HEK293T; together with: 3 nM human pancreatic polypeptide).
CCCCCc1cc(O)c2c(c1)OC(C)(C)C1CCC(C(=O)OC3OC(C(=O)O)C(O)C(O)C3O)=CC21 (stereo not shown) gave an IC50 of 15 ± 2.4 µM (Cytochrome P450 2C9 (CYP2C9, Homo sapiens, UniProt P11712); inhibitor; 30 min preincubation without NADPH).
The IC50 of C[C@H](CS)C(=O)Nc1cccc(-n2nccn2)c1 is reported as 3.7 µM (Metallo-beta-lactamase type 2; inhibitor; 10 min preincubation, together with: FC5 substrate).
CCN(Cc1ccccc1)C(=O)CCc1nc(CN2CCN(C(=O)Cc3ccc(OC)c(OC)c3)CC2)no1 gave an IC50 of 0.16 ± 0.05 µM (Sodium channel protein type 11 subunit alpha (Scn11a, Rattus norvegicus, UniProt O88457); ion current, inhibitor, whole-cell patch clamp; rat DRG neurons).
CN1C(=O)[C@H](Cc2ccccc2)N(C)C(=O)[C@@H]2[C@H]1CCN2Cc1cc(Cl)cc(Cl)c1 gave an IC50 of 13.6 µM (KLRK1 with ULBP6; ligand binding, inhibitor, TR-FRET; HEK293 expressing NKG2D and DAP10; together with: ULBP6-AF647).
The IC50 of C[C@H](CS)C(=O)Nc1ccccc1-c1nnn(C)n1 is reported as 12.3 µM (Metallo-beta-lactamase type 2; inhibitor; 10 min preincubation, together with: FC5 substrate).
CC[C@@H]1C(=O)N(C)c2cnc(Nc3ccc(C(=O)NCCCC[C@H](NC(=O)[C@@H](NC(=O)[C@H](CO)NC(=O)[C@H](Cc4cncn4CCCCCCCCc4ccccc4)NC(=O)[C@H](CC(C)C)NC(=O)[C@@H]4CCCN4C(C)=O)[C@@H](C)OP(=O)(O)O)C(N)=O)cc3OC)nc2N1C1CCCC1 has an IC50 of 0.0049 µM (PLK1 (Homo sapiens, UniProt P53350); enzyme activity, inhibitor).
For COC(=O)C=CCCC(NC(=O)c1ccncc1C(=O)O)C(=O)NC(C(=O)N1CC(=O)CC1C(=O)NC(C(=O)NC(C(N)=O)C1CCCCC1)C1CCCCC1)C(C)(C)C (stereo not shown), the IC50 was 0.016 ± 0.0015 µM (Coagulation factor XIII A chain (Pig, UniProt K7GQL2); transamidation activity, inhibitor; pig enzyme, together with: dansylcadaverine into N,N-dimethylcasein).
The IC50 of O=C(O)CCn1c(=O)oc2cc(Cl)c(Cl)cc21 is reported as 7 µM (Kynurenine 3-monooxygenase (Rattus norvegicus, UniProt O88867); enzyme activity, inhibitor; HEK cells expressing target).
NC[C@@H]1O[C@H](O[C@H]2[C@@H](O)[C@H](O[C@@H]3[C@@H](O)[C@H](N)C[C@H](N)[C@H]3O[C@H]3O[C@H](CN)[C@@H](O)[C@H](O)[C@H]3N)O[C@@H]2Cn2cc(COCCCCCCCCCCCCOCc3cn(C[C@H]4O[C@@H](O[C@@H]5[C@@H](O)[C@H](N)C[C@H](N)[C@H]5O[C@H]5O[C@H](CN)[C@@H](O)[C@H](O)[C@H]5N)[C@H](O)[C@@H]4O[C@H]4O[C@@H](CN)[C@@H](O)[C@H](O)[C@H]4N)nn3)nn2)[C@H](N)[C@@H](O)[C@@H]1O gave an IC50 of 0.074 µM (HIV-1 TAR RNA; ethidium displacement; pH 6.8).
CC(C)C[C@H](NC(=O)[C@@H](CCCNC(=N)N)NC(=O)[C@H](Cc1c[nH]cn1)NC(=O)[C@H](CO)NC(=O)[C@H](Cc1c[nH]c2ccccc12)NC(=O)[C@H](Cc1c[nH]cn1)NC(=O)[C@@H]1CCC(=O)N1)C(=O)N[C@@H](CCCNC(=N)N)C(=O)N1CCC[C@H]1C(=O)NCC(N)=O gave an IC50 of 0.0223 µM (Gonadotropin-releasing hormone receptor (Rattus norvegicus, UniProt P30969); ligand displacement in cells, radioligand).
The IC50 of C=C(C)C1CCc2c(c(C)cc(O)c(=O)c2O)C1 (stereo not shown) is reported as 1.7 µM (Dimer of Gag-Pol polyprotein, RT RNase H domain (Human immunodeficiency virus 2, UniProt P04584); RNase H activity, inhibitor).
With C/C=C1\NC(=O)[C@H](C)NC(=O)[C@@H](NC(=O)[C@@H](Cc2ccc(O)cc2)NC(=O)[C@@H](NC(=O)/C(C)=C/C)C(C)C)[C@@H](C)OC(=O)[C@H](CCCc2ccc(O)cc2)NC(=O)[C@@H](CCC(=O)O)NC1=O the IC50 was 0.53 ± 0.19 µM (CELA1 (Sus scrofa, UniProt P00772); inhibitor).
CC(C)C[C@H](NC(=O)[C@H](C)NC(=O)[C@H](CC(N)=O)NC(=O)[C@H](CCC(=O)O)NC(=O)[C@@H](N)CCCCN)C(=O)N[C@@H](CC(C)C)C(=O)N[C@@H](CCCNC(=N)N)C(=O)N[C@@H](Cc1ccc(O)cc1)C(=O)N[C@@H](CC(C)C)C(=O)N[C@@H](CC(C)C)C(=O)N[C@@H](CC(=O)O)C(=O)N[C@@H](CCCCN)C(=O)N[C@@H](CC(=O)O)C(=O)NCC(=O)NCC(=O)NCC(=O)N[C@@H](CCCNC(=N)N)C(=O)N[C@@H](CCCNC(=N)N)C(=O)N[C@@H](CCCNC(=N)N)C(=O)N[C@@H](CCCNC(=N)N)C(=O)N[C@@H](CCCNC(=N)N)C(=O)N[C@@H](CCCNC(=N)N)C(N)=O gave an IC50 of over 30 µM (Vitamin D3 receptor (VDR, Homo sapiens, UniProt P11473); reporter gene, antagonist, dual-luciferase; MCF7; 16 h, together with: calcitriol 30 nM).
For Cn1nnc(-c2cccc(NC(=O)CS)c2)n1, the IC50 was 0.94 µM (Metallo-beta-lactamase type 2; inhibitor; 10 min preincubation, together with: FC5 substrate).
The IC50 of CCCCC[N+](CCCCC)(CCCCC)CCCCC is reported as 120 ± 18 µM (Kcnk2 (Rattus norvegicus, UniProt Q920B6, L189C); ion current, inhibitor, inside-out patch clamp).
